{"data": "Assay results of several laboratories", "note": "A part holds a random share of what one study measured. Changes are numbered by the printed parent chain."}
{"data": "Block 1", "target": "RNA binding protein fox-1 homolog 2, RRM domain, GST-SBP tag (RBFOX2, Homo sapiens, UniProt O43251-10, residues 100-194)", "method": "RNA Bind-n-Seq", "molecule type": "RNA", "sample": "in vitro", "tested at": "365 nM", "notes": "natural RNA segment, single round, ends assumed", "baseline": "no-protein control", "reading": "higher = stronger binding", "shared flanks, not repeated": "GGGAGUUCUACAGUCCGACGAUC … UGGAAUUCUCGGGUGCCAA", "Residues (chain)": "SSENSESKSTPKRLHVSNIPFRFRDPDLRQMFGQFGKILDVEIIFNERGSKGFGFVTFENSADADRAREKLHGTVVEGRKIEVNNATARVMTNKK"}
{"Oligonucleotide": "GAACAUUAAGCUAUUUAACCCUCAAAGUUGACCAUGCUUCCAGGACCACAGCACACCCAAGGACAUGUGCCUGUCCGGGAGGGCAGCAUGCCGACUUGAUCUUUGAGCCC", "RBNS enrichment (R)": 0.398}
{"Oligonucleotide": "CAGGUUAUUAUUUGAAACUGUAUUACUCUACUCAGUAUUUUGGCCAGGUCCCAGUCCCGGGUUGCAGGUGUUGACUGCCACCAAGGUUUGAUACGGGAUCCAAAUUCAGG", "RBNS enrichment (R)": 0.424}
{"Oligonucleotide": "UUUAUGUGAUUGUACAGUAUUAAAAGUUUUUUCUUAUGUACAGUAAACUUUAUCAUAUGGCAGAAGCCUCUAUUGUGUUAAAUAAAUUAGUAUUUCAUAUAUAUACAUAU", "RBNS enrichment (R)": 0.939}
{"Oligonucleotide": "CCAGCAGGCAGGUGUUCUGAGGCUGGUCCCUCCUCAGUUUCCGCAGCCACAAGGCGAAACGGCCAGAUUCUCACUCAAGGUCGUUCUCACUCCUUUUCCUGUCCCGUUUC", "RBNS enrichment (R)": 0.521}
{"Oligonucleotide": "CUGGUGCCUGAAGGAAACUCUGGGAAAUUGUACACUAACAGGGAGUUGAACCAUGAAGCUCUUCGUCAGAUGAAUGAAUACUUUUGAUUGGACAACAGAUAAUGGGUUAG", "RBNS enrichment (R)": 0.684}
{"Oligonucleotide": "GCCUUGCCUGACCUCCCACCCUAGUGGCCACCGGGAAGGCUGAAGGGAGUGGACACCACAGGAAGACACAGGUUGGAGCAAAACUUGAAUAAUGUCCUUUAUCCUGAUUU", "RBNS enrichment (R)": 0.548}
{"Oligonucleotide": "ACGAAGAAUUUGGAAUAGGUUUGGUUACAUCUAUUUCUCAUCCCCUUAUUUUCCACCAUUUAAAAAUAAUAAACAUGUUUCUUACCACCGUAUGUUCAUAUGGAUAAGAC", "RBNS enrichment (R)": 0.358}
{"Oligonucleotide": "CAUGAACAUGACUUUCCUAAAGUGGAAGGAUCUGUCCCCACCUUCACCCAGUCCUUAGGACAAGUAGAAAGGGGCAUUCUGGCACUUGGCAUAACCUAUGCCACGAUGGU", "RBNS enrichment (R)": 0.214}
{"Oligonucleotide": "AUCAUUUUGGGUCAGACAUCAAUGUCCCUGUCCCCCCUGGGUCCAGCCAAGCUGUGCCCCAUCCCCCAAGCCUCCUGGGAGGAUCCAGCCAAAUCUUGCGACUCCUGGCA", "RBNS enrichment (R)": 0.548}
{"Oligonucleotide": "AAUCUUAGGGUGUCUAUCCACGUCUGGCUGUGCCAAAUGGUCUGGCAGCUGGUUUUGGCAUCCCCAGCAUCACCACUCUCCCAACCCAUCACCGUGACUGCAGUUCCUGC", "RBNS enrichment (R)": 0.228}
{"data": "Block 2", "target": "CCNB2, cyclin fold, Cln2 fusion (human)", "method": "yeast growth competition, sequencing", "sample": "yeast", "notes": "weak parent motif", "baseline": "not given", "reading": "higher = stronger binding", "parent": "CDC25A docking peptide (human); PPHRRRLLFACSP; partner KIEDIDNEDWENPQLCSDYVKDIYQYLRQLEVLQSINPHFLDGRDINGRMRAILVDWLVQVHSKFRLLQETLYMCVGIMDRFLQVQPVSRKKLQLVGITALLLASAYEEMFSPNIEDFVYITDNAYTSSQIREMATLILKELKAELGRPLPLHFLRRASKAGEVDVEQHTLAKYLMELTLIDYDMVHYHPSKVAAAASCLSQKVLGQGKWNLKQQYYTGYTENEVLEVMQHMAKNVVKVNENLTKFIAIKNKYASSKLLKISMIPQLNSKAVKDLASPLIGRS"}
{"Substitution": "S12N", "normalised enrichment score": 1.03}
{"Substitution": "P2A", "normalised enrichment score": 0.417}
{"Substitution": "F9C", "normalised enrichment score": 0.457}
{"Substitution": "P2L", "normalised enrichment score": 0.49}
{"Substitution": "P1N", "normalised enrichment score": 0.532}
{"Substitution": "C11P", "normalised enrichment score": 0.69}
{"Substitution": "S12M", "normalised enrichment score": 0.727}
{"Substitution": "L8A", "normalised enrichment score": 0.584}
{"Substitution": "P1Y", "normalised enrichment score": 1.06}
{"Substitution": "C11N", "normalised enrichment score": 0.109}
{"data": "Block 3", "target": "Ras GTPase-activating protein-binding protein 1, full length (G3BP1, Homo sapiens, UniProt Q13283)", "method": "RNA Bind-n-Seq", "molecule type": "RNA", "sample": "in vitro", "tested at": "200 nM", "notes": "whole 134-nt RNA, ends assumed", "with": "150 mM KCl", "baseline": "input library", "reading": "higher = stronger binding", "shared flanks, not repeated": "GGGAGUUCUACAGUCCGACGAUC … UGGAAUUCUCGGGUGUCAAGG", "UniProt Q13283, sequence (whole entry, looked up)": "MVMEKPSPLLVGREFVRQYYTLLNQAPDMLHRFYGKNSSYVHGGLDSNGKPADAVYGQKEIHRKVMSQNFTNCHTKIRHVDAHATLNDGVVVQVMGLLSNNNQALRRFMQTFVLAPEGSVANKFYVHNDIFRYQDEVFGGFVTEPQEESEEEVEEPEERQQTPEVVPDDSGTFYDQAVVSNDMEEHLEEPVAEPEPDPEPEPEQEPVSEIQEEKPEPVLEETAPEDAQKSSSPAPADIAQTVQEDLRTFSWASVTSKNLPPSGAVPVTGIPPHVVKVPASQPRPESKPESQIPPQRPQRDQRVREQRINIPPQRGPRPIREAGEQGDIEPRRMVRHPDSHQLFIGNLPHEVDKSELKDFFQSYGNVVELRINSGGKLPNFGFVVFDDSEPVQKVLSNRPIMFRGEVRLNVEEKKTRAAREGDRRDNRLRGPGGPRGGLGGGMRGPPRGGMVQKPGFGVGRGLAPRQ"}
{"Oligonucleotide": "UCACUUUAGAGGAGGAUCUGAUGGAUAUGGCAGUGGACGUGGAUUUGGGGAUGGCUAUAAUGGGUAUGGAGGAGGACCUGGAGGUGGCAA", "log2 enrichment": 0.321}
{"Oligonucleotide": "UGGCCCUGGUGGCAUGCGGGGAGGAAGAGGUGGCCUCAUGGAUCGUGGUGGUCCCGGUGGAAUGUACAGAGGUGGCCGUGGUGGAGACAG", "log2 enrichment": 0.224}
{"Oligonucleotide": "UCCUGUGCUACACAUCGUAUGUACCGAAUCGGGUUUUUGGGAAAAAAAGGGUUUUUGGGAAAGUAUUAUGUUACGCCGUUCGGAUCUGCA", "log2 enrichment": -0.552}
{"Oligonucleotide": "CAAGUCCUGUGCUACACAUCGUAUGUACCGAAUCGGGGAAAGGGAAAGGAAAGGGAAAGUAUUAUGUUACGCCGUUCGGAUCUGCACUUC", "log2 enrichment": -0.0985}
{"Oligonucleotide": "CCUGUGCUACACAUCGUAUGUACCGAAUCGGGUUUUUUUGGGUUUUUGGGUUUUUUUGGGAAAGUAUUAUGUUACGCCGUUCGGAUCUGC", "log2 enrichment": -0.758}
{"Oligonucleotide": "AAGUCCUGUGCUACACAUCGUAUGUACCGAAUCGGUUUUUGGAAAAAGGUUUUUGGAAAGUAUUAUGUUACGCCGUUCGGAUCUGCACUU", "log2 enrichment": -1.45}
{"Oligonucleotide": "UGGGAGGUGGAUUUUGUUUAUUUUGUUAGCUCAUUUCCAGGGGUGGGAAUUUUUUUUUAAUAUGUGUCAUGAAUAAAGUUGUUUUUGAAA", "log2 enrichment": 0.149}
{"Oligonucleotide": "GUCCUGUGCUACACAUCGUAUGUACCGAAUCGGGUUUUUGGGAAAAAGGGAAAAAGGGAAAGUAUUAUGUUACGCCGUUCGGAUCUGCAC", "log2 enrichment": -0.549}
{"Oligonucleotide": "AAGUCCUGUGCUACACAUCGUAUGUACCGAAUCGGGAAAAAAAGGGAAAGGGAGGGAAAGUAUUAUGUUACGCCGUUCGGAUCUGCACUU", "log2 enrichment": 0.402}
{"data": "Mixed results"}
{"Molecule": "PhoQ, residues 284 288 289 292 302 303 ALASRC", "target": "PhoP, residues 12 14 15 18 19 QWHVF (Escherichia coli, UniProt P23836)", "assay": "Sort-seq, item: YFP reporter", "system": "E. coli", "conditions": "PhoQ-PhoP variant library, with: 10 µM Mg2+", "how to read": "baseline: high Mg2+ state, higher = stronger signaling", "quantity": "fold induction", "result": 1.56}
